Experimental data from different studies.
Numbered parts are unrelated; each lists some results of a single study.
Sequence of UniProt P16591 (whole entry, looked up): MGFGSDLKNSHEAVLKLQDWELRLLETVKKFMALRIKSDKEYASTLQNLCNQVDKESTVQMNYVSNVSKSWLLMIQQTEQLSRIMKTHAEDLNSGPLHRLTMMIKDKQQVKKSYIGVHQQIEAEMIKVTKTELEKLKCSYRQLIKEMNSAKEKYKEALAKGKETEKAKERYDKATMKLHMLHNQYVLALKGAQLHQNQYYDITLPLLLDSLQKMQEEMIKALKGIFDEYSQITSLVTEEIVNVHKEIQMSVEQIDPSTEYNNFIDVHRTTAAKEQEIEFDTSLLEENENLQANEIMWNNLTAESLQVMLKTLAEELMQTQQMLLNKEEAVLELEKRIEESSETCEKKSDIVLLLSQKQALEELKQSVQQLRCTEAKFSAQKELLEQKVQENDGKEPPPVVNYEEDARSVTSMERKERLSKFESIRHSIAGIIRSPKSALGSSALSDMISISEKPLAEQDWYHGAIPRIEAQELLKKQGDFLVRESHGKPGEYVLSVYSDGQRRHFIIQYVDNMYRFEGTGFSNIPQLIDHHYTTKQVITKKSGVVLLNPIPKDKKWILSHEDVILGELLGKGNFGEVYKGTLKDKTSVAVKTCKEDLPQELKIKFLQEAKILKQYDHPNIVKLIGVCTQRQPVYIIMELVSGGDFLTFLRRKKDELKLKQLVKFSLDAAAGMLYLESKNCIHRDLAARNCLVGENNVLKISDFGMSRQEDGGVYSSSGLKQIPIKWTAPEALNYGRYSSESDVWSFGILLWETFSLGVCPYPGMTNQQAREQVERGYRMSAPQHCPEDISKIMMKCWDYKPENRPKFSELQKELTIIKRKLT
Sequence of UniProt P35916 (whole entry, looked up): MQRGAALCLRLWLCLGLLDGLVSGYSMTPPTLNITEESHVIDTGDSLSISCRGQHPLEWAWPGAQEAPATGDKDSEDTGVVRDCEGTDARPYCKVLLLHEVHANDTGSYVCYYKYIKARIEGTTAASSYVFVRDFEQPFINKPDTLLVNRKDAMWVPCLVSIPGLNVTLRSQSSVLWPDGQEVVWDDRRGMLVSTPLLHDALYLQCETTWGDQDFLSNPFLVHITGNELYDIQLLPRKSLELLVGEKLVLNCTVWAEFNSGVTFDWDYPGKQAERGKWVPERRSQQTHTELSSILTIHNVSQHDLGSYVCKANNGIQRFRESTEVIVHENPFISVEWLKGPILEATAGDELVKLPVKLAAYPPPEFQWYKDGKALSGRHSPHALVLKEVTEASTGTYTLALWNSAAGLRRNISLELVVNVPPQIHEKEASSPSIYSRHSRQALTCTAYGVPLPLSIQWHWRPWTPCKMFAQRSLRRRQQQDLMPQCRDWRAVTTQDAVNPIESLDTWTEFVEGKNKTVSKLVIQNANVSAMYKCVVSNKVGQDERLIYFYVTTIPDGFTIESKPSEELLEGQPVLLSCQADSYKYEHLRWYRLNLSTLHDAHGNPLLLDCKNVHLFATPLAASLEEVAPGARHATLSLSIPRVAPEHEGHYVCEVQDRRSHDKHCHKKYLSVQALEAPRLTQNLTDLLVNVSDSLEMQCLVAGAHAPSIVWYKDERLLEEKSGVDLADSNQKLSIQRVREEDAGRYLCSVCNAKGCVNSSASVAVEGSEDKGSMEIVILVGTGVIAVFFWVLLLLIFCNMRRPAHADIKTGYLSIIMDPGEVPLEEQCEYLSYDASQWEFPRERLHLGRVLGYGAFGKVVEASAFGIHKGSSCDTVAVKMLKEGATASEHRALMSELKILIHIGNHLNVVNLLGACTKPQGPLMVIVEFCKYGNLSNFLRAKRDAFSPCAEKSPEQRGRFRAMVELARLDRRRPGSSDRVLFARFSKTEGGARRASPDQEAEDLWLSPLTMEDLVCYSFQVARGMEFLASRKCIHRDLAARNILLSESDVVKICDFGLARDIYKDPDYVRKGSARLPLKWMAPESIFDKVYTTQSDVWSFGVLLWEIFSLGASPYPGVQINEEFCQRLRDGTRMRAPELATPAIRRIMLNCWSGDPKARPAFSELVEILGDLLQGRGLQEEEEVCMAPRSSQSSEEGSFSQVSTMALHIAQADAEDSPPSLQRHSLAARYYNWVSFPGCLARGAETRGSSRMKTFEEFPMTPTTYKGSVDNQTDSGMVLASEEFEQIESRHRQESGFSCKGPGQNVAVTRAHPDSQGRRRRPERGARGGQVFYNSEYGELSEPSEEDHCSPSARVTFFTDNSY
Sequence of UniProt P06241 (whole entry, looked up): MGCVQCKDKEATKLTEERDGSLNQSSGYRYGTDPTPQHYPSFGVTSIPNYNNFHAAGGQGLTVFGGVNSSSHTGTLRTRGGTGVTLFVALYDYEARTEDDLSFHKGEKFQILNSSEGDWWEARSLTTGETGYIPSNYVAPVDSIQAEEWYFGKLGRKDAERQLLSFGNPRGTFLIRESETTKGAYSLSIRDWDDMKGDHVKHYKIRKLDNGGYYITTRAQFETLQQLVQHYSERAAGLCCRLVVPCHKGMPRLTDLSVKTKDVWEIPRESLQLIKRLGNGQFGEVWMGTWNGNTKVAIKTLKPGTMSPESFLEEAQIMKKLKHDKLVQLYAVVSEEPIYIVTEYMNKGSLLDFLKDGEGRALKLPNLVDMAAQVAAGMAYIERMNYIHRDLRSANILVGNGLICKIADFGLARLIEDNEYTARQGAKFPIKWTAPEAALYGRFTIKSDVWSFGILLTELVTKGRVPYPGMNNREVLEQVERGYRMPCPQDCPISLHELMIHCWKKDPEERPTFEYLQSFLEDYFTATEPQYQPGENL
Sequence of UniProt Q9H2K8 (whole entry, looked up): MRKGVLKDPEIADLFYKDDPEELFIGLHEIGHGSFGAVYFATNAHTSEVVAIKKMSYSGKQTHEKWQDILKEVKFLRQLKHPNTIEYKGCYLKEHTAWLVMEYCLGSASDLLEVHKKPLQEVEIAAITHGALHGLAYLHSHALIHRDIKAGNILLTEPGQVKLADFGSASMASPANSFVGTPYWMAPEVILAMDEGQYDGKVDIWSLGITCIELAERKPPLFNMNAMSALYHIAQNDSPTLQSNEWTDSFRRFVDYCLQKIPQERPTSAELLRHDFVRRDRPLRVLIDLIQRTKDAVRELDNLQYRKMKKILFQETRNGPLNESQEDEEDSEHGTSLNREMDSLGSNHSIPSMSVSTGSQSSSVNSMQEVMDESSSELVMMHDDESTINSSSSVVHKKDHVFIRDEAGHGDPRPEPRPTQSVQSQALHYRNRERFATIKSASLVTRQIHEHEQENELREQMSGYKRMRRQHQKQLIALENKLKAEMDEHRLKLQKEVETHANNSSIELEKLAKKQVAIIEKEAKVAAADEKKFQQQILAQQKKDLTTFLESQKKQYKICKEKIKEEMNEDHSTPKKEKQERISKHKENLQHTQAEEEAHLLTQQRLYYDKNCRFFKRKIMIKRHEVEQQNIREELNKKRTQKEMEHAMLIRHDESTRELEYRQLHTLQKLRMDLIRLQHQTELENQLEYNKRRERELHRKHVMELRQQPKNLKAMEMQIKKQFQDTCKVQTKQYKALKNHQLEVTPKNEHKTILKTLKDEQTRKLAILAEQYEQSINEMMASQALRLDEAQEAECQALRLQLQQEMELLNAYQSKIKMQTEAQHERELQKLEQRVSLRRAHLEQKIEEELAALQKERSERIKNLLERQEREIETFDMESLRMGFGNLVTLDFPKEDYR
Sequence of UniProt Q9UQ88 (whole entry, looked up): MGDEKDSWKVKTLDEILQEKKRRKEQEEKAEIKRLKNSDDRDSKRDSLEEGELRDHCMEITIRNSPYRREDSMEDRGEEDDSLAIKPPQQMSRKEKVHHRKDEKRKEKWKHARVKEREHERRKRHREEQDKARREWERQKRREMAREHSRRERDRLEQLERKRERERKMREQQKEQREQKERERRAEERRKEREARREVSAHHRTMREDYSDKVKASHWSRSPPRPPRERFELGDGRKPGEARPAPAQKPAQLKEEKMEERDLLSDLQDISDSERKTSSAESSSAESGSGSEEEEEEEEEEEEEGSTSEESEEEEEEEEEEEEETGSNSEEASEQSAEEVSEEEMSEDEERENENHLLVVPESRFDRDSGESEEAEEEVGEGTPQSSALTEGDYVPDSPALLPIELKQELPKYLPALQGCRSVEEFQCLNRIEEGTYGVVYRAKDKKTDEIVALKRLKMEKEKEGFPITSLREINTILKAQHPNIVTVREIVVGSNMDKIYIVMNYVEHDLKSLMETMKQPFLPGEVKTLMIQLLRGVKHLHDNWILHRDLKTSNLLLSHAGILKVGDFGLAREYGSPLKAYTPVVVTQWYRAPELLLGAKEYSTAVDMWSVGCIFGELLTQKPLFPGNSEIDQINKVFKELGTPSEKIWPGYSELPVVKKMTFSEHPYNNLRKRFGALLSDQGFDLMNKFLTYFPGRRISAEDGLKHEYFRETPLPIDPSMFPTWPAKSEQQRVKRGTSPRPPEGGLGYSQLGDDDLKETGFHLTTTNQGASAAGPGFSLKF

Sample 1 — mode: agonist
Target: Beta-1 adrenergic receptor (ADRB1, Homo sapiens, UniProt P08588)
Sequence of UniProt P08588 (whole entry, looked up): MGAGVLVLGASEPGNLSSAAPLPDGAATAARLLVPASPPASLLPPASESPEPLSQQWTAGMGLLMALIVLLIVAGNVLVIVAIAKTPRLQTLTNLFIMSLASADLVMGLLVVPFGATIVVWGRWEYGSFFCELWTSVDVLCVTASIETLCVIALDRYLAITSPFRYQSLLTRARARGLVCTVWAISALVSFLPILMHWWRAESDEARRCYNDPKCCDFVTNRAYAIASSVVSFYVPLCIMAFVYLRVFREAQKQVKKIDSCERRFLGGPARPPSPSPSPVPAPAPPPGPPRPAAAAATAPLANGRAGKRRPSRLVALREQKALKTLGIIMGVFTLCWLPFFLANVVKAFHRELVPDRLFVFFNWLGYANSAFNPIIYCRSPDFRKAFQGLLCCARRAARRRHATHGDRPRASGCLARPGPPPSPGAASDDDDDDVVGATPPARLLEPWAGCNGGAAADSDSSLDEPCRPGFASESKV
| SMILES | EC50 |
| --- | --- |
| CCN(c1cc(-c2ccc(N3CCN(C)CC3)nc2)cc(C(=O)NCc2c3c(c(C)[nH]c2=O)CCCC3)c1C)C1CCOCC1 | ≥ 100 µM |
| COc1ccccc1-c1nnc(SCc2cc(=O)oc3cc(O)ccc23)n1C | ≥ 100 µM |
| c1ccc2c(-c3cnn4cc(-c5ccc(N6CCNCC6)cc5)cnc34)ccnc2c1 | ≥ 100 µM |
| OC1(c2nc(Nc3cccc(F)c3)n[nH]2)CCOCC1 | ≥ 100 µM |
| CCOc1ccccc1C(=O)N1CCc2cc(OC)c(OC)cc2C1COc1ccc2c(C)cc(=O)oc2c1 (stereo not drawn) | ≥ 100 µM |
| COCCNC[C@@H]1C=C(C)[C@H](Cc2nnc(-c3ccc(N(C)C)cc3)o2)C[C@H]1C(C)C | ≥ 100 µM |
| Fc1ccc2c(c1)nc1n2[C@@H](CNCc2ccccc2)COC1 | ≥ 100 µM |
| Cc1c[nH]c(=O)n(CCCN2CCN(c3ccccc3OCC(F)(F)F)CC2)c1=O | ≥ 100 µM |
| O=C(c1cc(O)nc2ccccc12)N1CCC(Cn2nc(-c3ccccc3)ccc2=O)CC1 | ≥ 100 µM |
| Cc1cccnc1NCCNc1nc(C(C)C)nc2c1cnn2C | ≥ 100 µM |
| Cc1ccc2c(C(=O)N(C)C(C)C)cc(-c3cnc(C(C)C)nc3)nc2c1 | 11.2 µM |
| Brc1ccc(-c2noc(-c3c[nH]nc3-c3ccccc3)n2)cc1 | ≥ 100 µM |
| O=C(c1cc(N2CCN(c3ccccc3)CC2)nc2ccccc12)N1CCOCC1 | ≥ 100 µM |
| COc1ccccc1NC(=O)Nc1cccc(-c2ccc(N3CCOCC3)nn2)c1 | ≥ 100 µM |
| COc1ccccc1-c1cc(-c2ccsc2)c2onc(C)c2n1 | ≥ 100 µM |
| CN(C)c1cccc(C(=O)N2CCC3(CC2)NC(=O)N(c2cccc(Cl)c2)N3)c1 | ≥ 100 µM |

Sample 2 — effect on: enzyme activity; mode: inhibitor; concentration: 0.5 µM; relative to: control
Structure (SMILES): N#Cc1cnc2cnc(NCc3cccnc3)cc2c1Nc1ccc(F)c(Cl)c1
| target | remaining activity |
| --- | --- |
| Tyrosine-protein kinase ITK/TSK (ITK, Homo sapiens, UniProt Q08881) | 99.1% |
| PAS domain-containing serine/threonine-protein kinase (PASK, Homo sapiens, UniProt Q96RG2) | 124% |
| ALK tyrosine kinase receptor (ALK, Homo sapiens, UniProt Q9UM73) | 107% |
| Serine/threonine-protein kinase MRCK alpha (CDC42BPA, Homo sapiens, UniProt Q5VT25) | 80% |
| Serine/threonine-protein kinase N1 (PKN1, Homo sapiens, UniProt Q16512) | 101% |
| Tyrosine-protein kinase Fyn (FYN, Homo sapiens, UniProt P06241) | 103% |
| MAP/microtubule affinity-regulating kinase 3 (MARK3, Homo sapiens, UniProt P27448) | 101% |
| Proto-oncogene tyrosine-protein kinase Src (SRC, Homo sapiens, UniProt P12931) | 92.6% |
| Cyclin-dependent kinase 3, with cyclin E (CDK3, Homo sapiens, UniProt Q00526) | 95.6% |
| cAMP-dependent protein kinase catalytic subunit PRKX (PRKX, Homo sapiens, UniProt P51817) | 101% |
| Vascular endothelial growth factor receptor 3 (FLT4, Homo sapiens, UniProt P35916) | 96.2% |
| Insulin receptor (INSR, Homo sapiens, UniProt P06213) | 85.1% |
| Serine/threonine-protein kinase NLK (NLK, Homo sapiens, UniProt Q9UBE8) | 88% |
| LIM domain kinase 1 (LIMK1, Homo sapiens, UniProt P53667) | 101% |
| Homeodomain-interacting protein kinase 1 (HIPK1, Homo sapiens, UniProt Q86Z02) | 98.6% |
| Megakaryocyte-associated tyrosine-protein kinase (MATK, Homo sapiens, UniProt P42679) | 95.9% |
| Serine/threonine-protein kinase 25 (STK25, Homo sapiens, UniProt O00506) | 95.6% |
| Tyrosine-protein kinase Fgr (FGR, Homo sapiens, UniProt P09769) | 84.5% |
| Tyrosine-protein kinase Fer (FER, Homo sapiens, UniProt P16591) | 82.9% |
| RAC-alpha serine/threonine-protein kinase (AKT1, Homo sapiens, UniProt P31749) | 98.6% |
| Serine/threonine-protein kinase Nek11 (NEK11, Homo sapiens, UniProt Q8NG66) | 87.1% |
| Serine/threonine-protein kinase TAO3 (TAOK3, Homo sapiens, UniProt Q9H2K8) | 99.2% |

Sample 3 — organism: Sarcocystis neurona; effect on: parasite activity; concentration: 10 µM; time: 96 h
| Structure (SMILES) | activity class |
| --- | --- |
| Nc1nc2c(ncn2CCC(CO)CO)c(=O)[nH]1 | inactive |
| CC(C)/N=c1\cc2n(-c3ccc(Cl)cc3)c3ccccc3nc-2cc1Nc1ccc(Cl)cc1 | active |
| CC(=O)CCCCn1c(=O)c2c(ncn2C)n(C)c1=O | inactive |
| COC(=O)C1=C(C)NC(C)=C(C(=O)OC(C)C)C1c1cccc2nonc12 (stereo not drawn) | inactive |
| COC(=O)C[C@](O)(CCCC(C)(C)O)C(=O)O[C@@H]1C(OC)=C[C@]23CCCN2CCc2cc4c(cc2[C@H]13)OCO4 | inactive |
| CC(C)NCC(O)c1cc(O)cc(O)c1 (stereo not drawn) | inactive |
| NC(=O)N1c2ccccc2CC(=O)c2ccccc21 | inactive |
| COc1cccc2c1C(=O)c1c(O)c3c(c(O)c1C2=O)C[C@@](O)(C(=O)CO)C[C@@H]3O[C@H]1C[C@H](N)[C@H](O)[C@H](C)O1 | inactive |
| C[C@@H]1C[C@H]2[C@@H]3C[C@H](F)C4=CC(=O)C(Cl)=C[C@]4(C)[C@@]3(F)[C@@H](O)C[C@]2(C)[C@@]1(O)C(=O)CO | inactive |
| CCN1CCCC1CNC(=O)c1cc(S(=O)(=O)CC)c(N)cc1OC (stereo not drawn) | inactive |
| COc1ccc2cc(CCC(C)=O)ccc2c1 | inactive |
| O=C1CCc2ccc(OCCCCN3CCN(c4cccc(Cl)c4Cl)CC3)cc2N1 | inactive |

Sample 4 — technique: competition with immobilised ligand; concentration: 1 µM
SMILES: CN(C(=O)c1ccccc1)c1cc(N(C)c2ccc3c(c2)CCc2ccc(C(=O)NCCN4CCOCC4)cc2C3=O)ccc1F
| target | test | remaining binding |
| --- | --- | --- |
| Receptor-type tyrosine-protein kinase FLT3 (FLT3, Homo sapiens, UniProt P36888, D835V) | cell-free assay | 100% |
| Insulin receptor-related protein (INSRR, Homo sapiens, UniProt P14616) | cell-free assay | 100% |
| cGMP-dependent protein kinase 2 (PRKG2, Homo sapiens, UniProt Q13237) | cell-free assay | 82% |
| Dual specificity mitogen-activated protein kinase kinase 6 (MAP2K6, Homo sapiens, UniProt P52564) | cell-free assay | 62% |
| Homeodomain-interacting protein kinase 3 (HIPK3, Homo sapiens, UniProt Q9H422) | cell-free assay | 100% |
| Tyrosine-protein kinase JAK3, JH1 (JAK3, Homo sapiens, UniProt P52333) | cell-free assay | 100% |
| Cyclin-dependent kinase 11A (CDK11A, Homo sapiens, UniProt Q9UQ88) | binding | 95% |
| Tyrosine-protein kinase Fer (FER, Homo sapiens, UniProt P16591) | cell-free assay | 99% |
| Receptor-type tyrosine-protein kinase FLT3 (FLT3, Homo sapiens, UniProt P36888, D835Y) | cell-free assay | 98% |
| Ribosomal protein S6 kinase alpha-3, C-terminal kinase domain (RPS6KA3, Homo sapiens, UniProt P51812) | cell-free assay | 83% |
| Epidermal growth factor receptor (EGFR, Homo sapiens, UniProt P00533, del747-752/P753S) | cell-free assay | 72% |
| Serine/threonine-protein kinase DCLK2 (DCLK2, Homo sapiens, UniProt Q8N568) | cell-free assay | 100% |
| Cyclin-G-associated kinase (GAK, Homo sapiens, UniProt O14976) | cell-free assay | 92% |
| Serine/threonine-protein kinase Nek7 (NEK7, Homo sapiens, UniProt Q8TDX7) | cell-free assay | 91% |
| Calcium/calmodulin-dependent protein kinase type II subunit beta (CAMK2B, Homo sapiens, UniProt Q13554) | cell-free assay | 99% |
| Cyclin-dependent kinase 4, with cyclin D3 (CDK4, Homo sapiens, UniProt P11802) | cell-free assay | 100% |

Repeated from above (sample 4):
| target | test | remaining binding |
| --- | --- | --- |
| Homeodomain-interacting protein kinase 3 (HIPK3, Homo sapiens, UniProt Q9H422) | cell-free assay | 100% |
| Cyclin-G-associated kinase (GAK, Homo sapiens, UniProt O14976) | cell-free assay | 92% |
| Serine/threonine-protein kinase Nek7 (NEK7, Homo sapiens, UniProt Q8TDX7) | cell-free assay | 91% |
| Insulin receptor-related protein (INSRR, Homo sapiens, UniProt P14616) | cell-free assay | 100% |
| Cyclin-dependent kinase 11A (CDK11A, Homo sapiens, UniProt Q9UQ88) | binding | 95% |
| Serine/threonine-protein kinase DCLK2 (DCLK2, Homo sapiens, UniProt Q8N568) | cell-free assay | 100% |
| Tyrosine-protein kinase JAK3, JH1 (JAK3, Homo sapiens, UniProt P52333) | cell-free assay | 100% |
| Ribosomal protein S6 kinase alpha-3, C-terminal kinase domain (RPS6KA3, Homo sapiens, UniProt P51812) | cell-free assay | 83% |
| Cyclin-dependent kinase 4, with cyclin D3 (CDK4, Homo sapiens, UniProt P11802) | cell-free assay | 100% |
| Dual specificity mitogen-activated protein kinase kinase 6 (MAP2K6, Homo sapiens, UniProt P52564) | cell-free assay | 62% |
